Results gathered from unrelated publications.
A part holds a random share of what one study measured. “And” joins repeats or separate records; there may be more than shown.
Sequence of UniProt Q04912 (whole entry, looked up): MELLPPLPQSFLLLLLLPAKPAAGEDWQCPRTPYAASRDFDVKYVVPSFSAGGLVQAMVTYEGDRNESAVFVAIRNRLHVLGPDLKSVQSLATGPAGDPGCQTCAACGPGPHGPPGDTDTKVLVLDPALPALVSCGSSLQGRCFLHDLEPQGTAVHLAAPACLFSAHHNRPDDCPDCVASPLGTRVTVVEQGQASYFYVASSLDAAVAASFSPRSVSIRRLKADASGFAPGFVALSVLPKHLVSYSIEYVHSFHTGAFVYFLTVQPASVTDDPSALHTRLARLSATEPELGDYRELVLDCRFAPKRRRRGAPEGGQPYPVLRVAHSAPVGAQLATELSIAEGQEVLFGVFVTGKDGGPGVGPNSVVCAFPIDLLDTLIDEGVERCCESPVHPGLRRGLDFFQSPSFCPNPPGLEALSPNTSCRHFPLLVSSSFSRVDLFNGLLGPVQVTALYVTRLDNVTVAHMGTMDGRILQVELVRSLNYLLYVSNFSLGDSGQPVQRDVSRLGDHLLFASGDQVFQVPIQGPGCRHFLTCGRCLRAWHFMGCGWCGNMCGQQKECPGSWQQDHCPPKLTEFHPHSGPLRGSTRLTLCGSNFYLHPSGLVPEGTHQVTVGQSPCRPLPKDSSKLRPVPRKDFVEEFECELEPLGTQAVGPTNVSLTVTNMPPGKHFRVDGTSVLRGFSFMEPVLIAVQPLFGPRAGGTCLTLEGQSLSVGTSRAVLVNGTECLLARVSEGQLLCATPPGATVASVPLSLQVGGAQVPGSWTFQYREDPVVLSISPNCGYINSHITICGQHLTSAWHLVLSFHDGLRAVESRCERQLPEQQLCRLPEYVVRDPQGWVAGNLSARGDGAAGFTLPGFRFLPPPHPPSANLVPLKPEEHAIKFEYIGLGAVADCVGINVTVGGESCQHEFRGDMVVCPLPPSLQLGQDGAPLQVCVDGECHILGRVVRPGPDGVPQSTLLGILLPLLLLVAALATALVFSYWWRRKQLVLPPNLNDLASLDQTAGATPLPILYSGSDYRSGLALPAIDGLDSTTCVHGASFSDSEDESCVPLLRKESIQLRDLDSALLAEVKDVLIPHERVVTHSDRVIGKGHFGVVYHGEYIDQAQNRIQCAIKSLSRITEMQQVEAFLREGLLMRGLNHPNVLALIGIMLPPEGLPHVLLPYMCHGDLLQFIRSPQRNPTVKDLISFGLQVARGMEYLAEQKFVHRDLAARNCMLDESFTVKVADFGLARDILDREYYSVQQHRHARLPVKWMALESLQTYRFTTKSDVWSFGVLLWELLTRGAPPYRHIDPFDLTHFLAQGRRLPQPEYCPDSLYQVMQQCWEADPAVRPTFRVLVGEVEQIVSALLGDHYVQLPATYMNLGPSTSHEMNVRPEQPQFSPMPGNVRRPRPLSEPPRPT
Sequence of UniProt Q9Y3S1 (whole entry, looked up): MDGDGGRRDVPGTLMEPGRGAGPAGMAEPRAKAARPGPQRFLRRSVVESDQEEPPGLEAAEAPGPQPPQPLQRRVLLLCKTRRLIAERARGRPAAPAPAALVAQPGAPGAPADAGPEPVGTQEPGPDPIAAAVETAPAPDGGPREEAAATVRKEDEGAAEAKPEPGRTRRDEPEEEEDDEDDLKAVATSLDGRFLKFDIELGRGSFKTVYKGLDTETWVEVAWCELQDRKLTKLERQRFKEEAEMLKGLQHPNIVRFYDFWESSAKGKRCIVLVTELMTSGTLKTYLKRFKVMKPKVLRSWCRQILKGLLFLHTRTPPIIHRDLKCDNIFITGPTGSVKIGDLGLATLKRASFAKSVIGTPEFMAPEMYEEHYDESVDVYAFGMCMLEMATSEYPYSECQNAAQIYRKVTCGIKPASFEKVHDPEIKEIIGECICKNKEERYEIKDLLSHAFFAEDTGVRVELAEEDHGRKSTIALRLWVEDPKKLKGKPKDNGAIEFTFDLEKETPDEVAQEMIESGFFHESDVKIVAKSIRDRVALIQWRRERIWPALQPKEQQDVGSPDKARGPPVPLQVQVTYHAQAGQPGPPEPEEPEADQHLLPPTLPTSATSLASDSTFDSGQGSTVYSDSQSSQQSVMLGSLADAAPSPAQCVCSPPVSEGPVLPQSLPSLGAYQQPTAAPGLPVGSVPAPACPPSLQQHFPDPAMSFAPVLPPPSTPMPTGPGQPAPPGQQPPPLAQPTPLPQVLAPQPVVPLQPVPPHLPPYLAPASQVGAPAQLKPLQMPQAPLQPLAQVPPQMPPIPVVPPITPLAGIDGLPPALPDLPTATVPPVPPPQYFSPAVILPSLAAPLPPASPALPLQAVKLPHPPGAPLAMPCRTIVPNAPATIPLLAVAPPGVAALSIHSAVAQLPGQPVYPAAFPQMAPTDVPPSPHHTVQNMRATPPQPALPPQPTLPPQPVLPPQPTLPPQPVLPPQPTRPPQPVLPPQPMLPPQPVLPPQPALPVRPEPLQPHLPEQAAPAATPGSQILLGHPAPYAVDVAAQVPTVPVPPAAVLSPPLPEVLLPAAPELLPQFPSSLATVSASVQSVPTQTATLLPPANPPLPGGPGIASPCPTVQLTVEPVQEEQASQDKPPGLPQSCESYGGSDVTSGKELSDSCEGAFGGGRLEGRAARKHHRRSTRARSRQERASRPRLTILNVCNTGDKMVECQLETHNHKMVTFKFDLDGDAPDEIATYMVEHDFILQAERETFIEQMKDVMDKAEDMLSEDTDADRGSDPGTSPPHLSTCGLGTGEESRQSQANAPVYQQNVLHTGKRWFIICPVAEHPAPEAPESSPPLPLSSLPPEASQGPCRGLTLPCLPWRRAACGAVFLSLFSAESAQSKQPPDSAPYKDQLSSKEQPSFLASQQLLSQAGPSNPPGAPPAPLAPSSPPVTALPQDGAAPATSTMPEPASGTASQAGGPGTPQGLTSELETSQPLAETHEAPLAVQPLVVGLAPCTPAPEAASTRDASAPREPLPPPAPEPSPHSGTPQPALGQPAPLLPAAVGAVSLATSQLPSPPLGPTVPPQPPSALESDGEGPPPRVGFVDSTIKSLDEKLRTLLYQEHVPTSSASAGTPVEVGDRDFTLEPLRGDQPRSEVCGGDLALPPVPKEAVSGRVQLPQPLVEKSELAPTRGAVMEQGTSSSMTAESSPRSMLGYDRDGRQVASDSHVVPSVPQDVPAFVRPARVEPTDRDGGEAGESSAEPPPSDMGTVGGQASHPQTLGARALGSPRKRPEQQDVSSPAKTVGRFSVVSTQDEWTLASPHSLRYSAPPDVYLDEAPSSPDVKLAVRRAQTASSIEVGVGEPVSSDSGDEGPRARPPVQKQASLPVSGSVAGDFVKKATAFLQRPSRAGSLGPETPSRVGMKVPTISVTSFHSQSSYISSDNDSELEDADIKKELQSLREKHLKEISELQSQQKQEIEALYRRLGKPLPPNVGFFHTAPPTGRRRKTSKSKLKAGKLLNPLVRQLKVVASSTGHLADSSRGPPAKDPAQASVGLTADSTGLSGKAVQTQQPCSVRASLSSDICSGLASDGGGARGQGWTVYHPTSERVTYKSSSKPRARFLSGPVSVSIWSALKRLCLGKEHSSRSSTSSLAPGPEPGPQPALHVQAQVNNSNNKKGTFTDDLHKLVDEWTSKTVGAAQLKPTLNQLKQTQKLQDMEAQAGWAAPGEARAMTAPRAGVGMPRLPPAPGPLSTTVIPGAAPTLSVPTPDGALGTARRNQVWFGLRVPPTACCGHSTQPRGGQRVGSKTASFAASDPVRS
Sequence of UniProt Q9NYL2 (whole entry, looked up): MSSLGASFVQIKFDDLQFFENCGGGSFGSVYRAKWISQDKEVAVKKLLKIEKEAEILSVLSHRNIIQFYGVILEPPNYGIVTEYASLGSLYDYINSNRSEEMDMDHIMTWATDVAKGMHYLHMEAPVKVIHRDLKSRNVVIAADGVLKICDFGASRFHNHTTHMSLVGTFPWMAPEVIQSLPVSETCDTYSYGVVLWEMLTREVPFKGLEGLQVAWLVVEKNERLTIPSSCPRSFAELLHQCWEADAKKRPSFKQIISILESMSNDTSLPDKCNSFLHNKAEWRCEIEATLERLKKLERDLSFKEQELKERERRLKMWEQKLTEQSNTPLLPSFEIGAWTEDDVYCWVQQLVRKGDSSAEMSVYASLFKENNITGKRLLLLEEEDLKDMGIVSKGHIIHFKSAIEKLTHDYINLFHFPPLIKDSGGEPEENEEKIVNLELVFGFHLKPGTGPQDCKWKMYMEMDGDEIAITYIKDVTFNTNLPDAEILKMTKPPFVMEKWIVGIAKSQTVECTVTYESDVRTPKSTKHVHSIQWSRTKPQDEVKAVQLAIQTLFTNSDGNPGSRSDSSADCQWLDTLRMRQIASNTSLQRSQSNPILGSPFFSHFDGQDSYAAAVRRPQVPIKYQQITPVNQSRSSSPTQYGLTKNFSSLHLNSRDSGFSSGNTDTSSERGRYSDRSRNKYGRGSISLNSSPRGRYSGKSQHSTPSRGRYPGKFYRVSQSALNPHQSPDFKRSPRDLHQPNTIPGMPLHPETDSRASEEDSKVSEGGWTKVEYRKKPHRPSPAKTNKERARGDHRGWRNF

Series 1 — technique: microarray; baseline: untreated
SMILES: COCCCCCCC1CC2C(CCC3(C)C(O)CCC23)c2ccc(O)cc21 (centres unmarked)
cell line	item	tested at	log2 fold change
PANC-1	ADAMTS8	50 µM	-1.12
PANC-1	GADD45A	50 µM	2.78
A549	GZMK	50 µM	3.71
SK-OV-3	ISG20L1	10 µM	1.09
SK-OV-3	CCL8	10 µM	5.77
PANC-1	CCL8	10 µM	5.03
A549	ADAMTS14	10 µM	0.0489
A549	ISG20L1	10 µM	0.0992
PANC-1	ADAMTS14	10 µM	-0.403
SK-OV-3	GZMK	50 µM	4.11

Series 2
SMILES: Cc1ccc(O)c(C)c1-c1cnc2[nH]c(-c3cnc(N4CCC5(CC4)CC(N4CCN(c6ccc(NC7CCC(=O)NC7=O)cc6F)CC4)CO5)nc3)cc2c1C#N (centres unmarked)
PKMYT1: Membrane-associated tyrosine- and threonine-specific cdc2-inhibitory kinase (PKMYT1, Homo sapiens, UniProt Q99640)
Sequence of UniProt Q99640 (whole entry, looked up): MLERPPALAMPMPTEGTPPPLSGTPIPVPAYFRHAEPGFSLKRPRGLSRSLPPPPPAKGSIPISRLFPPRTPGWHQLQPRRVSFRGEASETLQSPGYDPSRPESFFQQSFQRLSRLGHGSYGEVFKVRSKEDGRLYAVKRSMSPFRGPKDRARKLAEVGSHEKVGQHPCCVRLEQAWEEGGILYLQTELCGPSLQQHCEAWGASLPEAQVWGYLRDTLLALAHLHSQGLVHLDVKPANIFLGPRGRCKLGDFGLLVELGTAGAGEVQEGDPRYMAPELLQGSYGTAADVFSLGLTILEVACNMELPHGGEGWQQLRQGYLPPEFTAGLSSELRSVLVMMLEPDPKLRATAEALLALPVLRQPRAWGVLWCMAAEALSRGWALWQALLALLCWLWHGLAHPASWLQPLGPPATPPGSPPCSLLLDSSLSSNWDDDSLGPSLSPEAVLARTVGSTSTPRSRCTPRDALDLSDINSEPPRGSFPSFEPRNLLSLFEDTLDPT
target or system	effect on	action	technique	item	tested at	inhibition
HCC1599	–	–	–	CDK1 phospho-Thr14	4.12 nM	10.8%
PKMYT1	–	–	–	–	0.000152 µM	1.57%
HuCCT-1	–	–	–	CDK1 phospho-Thr14	0.05 nM	10.1%
HuCCT-1	–	–	–	CDK1 phospho-Thr14	12.35 nM	44%
HCC1599	–	–	–	CDK1 phospho-Thr14	12.35 nM	14.1%
MDA-MB-157	–	–	–	CDK1 phospho-Thr14	4.12 nM	-10.4%
HuCCT-1	–	–	–	CDK1 phospho-Thr14	0.0169 nM	6.5%
PKMYT1	–	–	–	–	1 µM	101%
HCC1599	–	–	–	CDK1 phospho-Thr14	333.33 nM	65.4%
PKMYT1	cell-free assay	inhibitor	TR-FRET	–	51 pM	2.45%

Series 3 — organism: Arabidopsis thaliana; strain: Col-0; tested at: 100 µg/mL; setting: seed germination, single repetition
SMILES	hypocotyl length
CC(C)(C)c1ccc(Oc2ccc3c(c2)OC(O)(C(=O)O)C(=O)N3Cc2ccccc2)cc1 (centres unmarked)	1.25 cm and 1.27 cm and 1.22 cm and 1.23 cm
O=C(O)C1(O)Oc2cc(Cl)ccc2N(Cc2ccccc2)C1=O (centres unmarked)	1.21 cm and 1.2 cm and 1.27 cm and 1.22 cm
CCN1C(=O)C(O)(C(=O)O)Oc2cc(F)ccc21 (centres unmarked)	1.25 cm and 1.2 cm and 1.26 cm and 1.21 cm
CCCN1C(=O)C(O)(C(=O)O)Oc2cc(F)ccc21 (centres unmarked)	0.71 cm and 0.75 cm and 0.77 cm and 0.74 cm
O=C(O)C1(O)Oc2ccccc2N(Cc2ccccc2)C1=O (centres unmarked)	1.32 cm and 1.34 cm and 1.31 cm and 1.33 cm

Series 4 — tested at: 1 µM
Compound: CC[C@@]1(c2cccc(C(F)(F)F)c2)C2=C(Nc3n[nH]cc31)[C@H](F)C(C)(C)CC2=O (single isomer, unassigned)
target	effect on	technique	baseline	remaining binding [%]
WNK2 (Homo sapiens, UniProt Q9Y3S1)	binding	competition with immobilised ligand	–	100
EPHA5 (Homo sapiens, UniProt P54756)	binding	competition with immobilised ligand	–	100
TRPM6 (Homo sapiens, UniProt Q9BX84)	binding	competition with immobilised ligand	–	100
ANKK1 (Homo sapiens, UniProt Q8NFD2)	kinase binding	KINOMEscan	DMSO control	100
MST1R (Homo sapiens, UniProt Q04912)	kinase binding	KINOMEscan	DMSO control	85
BMPR1A (Homo sapiens, UniProt P36894)	binding	competition with immobilised ligand	–	100
CAMK1G (Homo sapiens, UniProt Q96NX5)	binding	competition with immobilised ligand	–	91
CDC42BPA (Homo sapiens, UniProt Q5VT25)	binding	competition with immobilised ligand	–	100
PIK3CA (Homo sapiens, UniProt P42336, H1047Y)	binding	competition with immobilised ligand	–	100
CSNK1G3 (Homo sapiens, UniProt Q9Y6M4)	kinase binding	KINOMEscan	DMSO control	100
PIM2 (Homo sapiens, UniProt Q9P1W9)	binding	competition with immobilised ligand	–	100
EPHB1 (Homo sapiens, UniProt P54762)	binding	competition with immobilised ligand	–	100
DDR1 (Homo sapiens, UniProt Q08345)	kinase binding	KINOMEscan	DMSO control	99
FLT3 ITD/D835V, human	–	KINOMEscan	–	100
WNK1 (Homo sapiens, UniProt Q9H4A3)	kinase binding	KINOMEscan	DMSO control	100
MAP3K20 (Homo sapiens, UniProt Q9NYL2)	binding	competition with immobilised ligand	–	100
MAPK11 (Homo sapiens, UniProt Q15759)	kinase binding	KINOMEscan	DMSO control	100
PRKD2 (Homo sapiens, UniProt Q9BZL6)	kinase binding	KINOMEscan	DMSO control	71
RPS6KB1 (Homo sapiens, UniProt P23443)	kinase binding	KINOMEscan	DMSO control	68

A few entries again (series 2):
target or system	effect on	action	technique	item	tested at	inhibition
HCC1599	–	–	–	CDK1 phospho-Thr14	4.12 nM	10.8%
PKMYT1	–	–	–	–	0.000152 µM	1.57%
HuCCT-1	–	–	–	CDK1 phospho-Thr14	0.05 nM	10.1%
HuCCT-1	–	–	–	CDK1 phospho-Thr14	12.35 nM	44%
HCC1599	–	–	–	CDK1 phospho-Thr14	12.35 nM	14.1%
MDA-MB-157	–	–	–	CDK1 phospho-Thr14	4.12 nM	-10.4%
